Results pooled from the literature.
Each line is one published result; not all experiments were run side by side. ± gives the spread as reported.

`CC12CC(c3ccc(C(O)CO)cc3)C3=C4CCC(=O)C=C4CCC3C1CCC2(O)C(F)(F)C(F)(F)F` (centres unmarked): “maximal oral bioavailability” 68% (human liver microsomes; 100 % absorption assumed).
For `COCC1CN(C2CCN(c3cc(OC)c(Nc4ncc(Br)c(Nc5ccc6c(c5P(C)(C)=O)OCCO6)n4)cc3C)CC2)C1`, “treatment-related Weak, all grades” read 18.5% (human patients; oral, 10 to 240 mg once daily).
`CC(C)c1cnc(-c2cc(Cl)ccc2F)cc1Nc1ccncc1C(=O)NC(CO)CO`: “patients with ALT increase” 4.8% (patients, phase I monotherapy; oral, dose not given, grade 2).
`COC(=O)c1ccc(-c2cn(Cc3cc(Cl)ccc3O[11CH3])nn2)cc1` — result for “distribution volume VT”: 0.594 mL/cm³ (PET, 2TCM; rhesus macaque, thalamus; dose not given).
`O=c1nc(NO)ccn1[C@@H]1O[C@H](CO)[C@@H](O)[C@H]1O` has a protein level of 2.3 fold (refers to: CYP3A4; rat, arthritis model, liver; oral, 80 mg/kg twice daily, 5 days; baseline: untreated arthritic rats).
For `Cn1cc(-c2cc(N3CCCS3(=O)=O)ccc2N[C@H]2CC[C@H](C)CC2)c2cc[nH]c2c1=O`, the Vss was 8.78 L/kg (Sprague-Dawley rat, plasma; intravenous, 1 mg/kg).
For `CC(C)C[C@H](NC(=O)[C@H](CCCCN)NC(=O)CNC(=O)[C@H](CC(C)C)NC(=O)[C@@H](NC(=O)[C@@H]1CSSC[C@H](N)C(=O)N[C@@H](CO)C(=O)N[C@@H](CC(N)=O)C(=O)N[C@@H](CC(C)C)C(=O)N[C@@H](CO)C(=O)N[C@@H]([C@@H](C)O)C(=O)N1)C(C)C)C(=O)N[C@@H](CO)C(=O)N[C@@H](CCC(N)=O)C(=O)N[C@@H](CCC(=O)O)C(=O)N[C@@H](CC(C)C)C(=O)N[C@@H](Cc1c[nH]cn1)C(=O)N[C@@H](CCCCN)C(=O)N[C@@H](CC(C)C)C(=O)N[C@@H](CCC(N)=O)C(=O)N[C@H](C(=O)N[C@@H](Cc1ccc(O)cc1)C(=O)N1CCC[C@H]1C(=O)N[C@@H](CCCNC(=N)N)C(=O)N[C@H](C(=O)N[C@@H](CC(N)=O)C(=O)N[C@H](C(=O)NCC(=O)N[C@@H](CO)C(=O)NCC(=O)N[C@H](C(=O)N1CCC[C@H]1C(N)=O)[C@@H](C)O)[C@@H](C)O)[C@@H](C)O)[C@@H](C)O`, the AUC was 6.48 ± 2.18 ng·h/mL (ELISA; hairless male Sprague-Dawley rat, serum; intravenous, 3 µg).
For `COc1ccc(/C=C/c2ccc(-c3ccc(C)cn3)nc2)cc1`, the fluorescence lifetime was 2.69 ns (aqueous HEPES buffer; pH 7.4, zinc(II) complex).
The relative error of `COc1ccc([C@@H]2CC(=O)c3c(O)cc(O[C@@H]4O[C@H](CO[C@@H]5O[C@@H](C)[C@H](O)[C@@H](O)[C@H]5O)[C@@H](O)[C@H](O)[C@H]4O)cc3O2)cc1O` is reported as -7.42% (rat plasma; 0.48 ng/mL, three freeze-thaw cycles; baseline: nominal concentration).
Under “dose recovered in urine”, `CC12CC(c3ccc(S(C)(=O)=O)cc3)C3=C4CCC(=O)C=C4CCC3C1CCC2(O)C(F)(F)C(F)(F)F` (centres unmarked) is recorded as 13.1 ± 1.71% (refers to: total radioactivity; human, urine; oral, 5 mg, 21 days).
`C#CC1(NC(=O)C(CC(C)(C)F)NC(c2ccc(-c3ccc(S(C)(=O)=O)cc3)cc2)C(F)(F)F)CC1` (centres unmarked): “cysteine adduct formation” less than 1% (LC-MS UV trace; aqueous buffer; concentration not given, 23 h, pH 5.5, 37 °C, added: cysteine 10 mM).
With `Oc1ccc2ccccc2c1/N=N/c1ccccc1` the measured concentration was 0.505 µg/L (extracted rat blood QC samples; 0.5 µg/L, 8 h, room temperature, short-term stability).
`CC(C)[C@H](NC(=O)[C@@H]1CCCN1C(=O)[C@H](CCCNC(=N)N)NC(=O)[C@H](CS)NC(=O)[C@H](Cc1c[nH]c2ccccc12)NC(=O)[C@H](CCCNC(=N)N)NC(=O)[C@@H](Cc1ccccc1)NC(=O)[C@H](Cc1c[nH]cn1)NC(=O)[C@H](CCC(=O)O)NC(=O)[C@H](CS)NC(=O)[C@H](CS)NC(=O)CNC(=O)[C@@H]1CC(=O)N[C@@H](CCCNC(=N)N)C(=O)NCC(=O)N[C@@H](CC(=O)O)C(=O)N[C@H](Cc2ccc(O)cc2)C(=O)N1)C(N)=O` [technetium-99m labelled] gave an excretion of 78.8 ± 3.38% (C57 mice B16/F1 melanoma female, urine; iv, 0.037 MBq, 4 h).
The exposure ratio of `CC(=O)N[C@H](C)c1cc(Cl)ccc1Cn1c(=S)[nH]c(=O)c2[nH]ccc21` is reported as 1.5 (Sprague-Dawley rat, female, plasma; oral, 125 mg/kg/day; baseline: rat over human 15 mg).
With `COc1cc2c(cc1OC)CN(CCCCn1ccc3cc(OCC[18F])ccc31)C2` the uptake was 14.1 ± 3.06 %ID/g (ICR mice, male, lung; intravenous, 15 min).
The relative error of `CCCCC/C=C/C=C/C(=O)NCC(C)C` is reported as -0.22% (rat plasma; 15 ng/mL, 48 h, 4 °C, short-term storage low QC; baseline: nominal concentration).
With `CCNC(=O)c1noc(-c2cc(C(C)C)c(O)cc2O)c1NC(=O)CCN1CCOCC1` the CL/F was 188 mL/min/kg (CD1 nude mouse A-431 xenograft, plasma; intraperitoneal, 80 mg/kg).
Under exposure ratio, `C[C@H]1NSc2nc(=O)c3[nH]ccc3n2Cc2ccc(Cl)cc21` is recorded as “not detected” (rat, male, plasma; 125 mg/kg; baseline: rat over human 10 mg).
`N=C(N)NCCC[C@H](NC(=O)COC(=O)[C@H](Cc1ccccc1)NC(=O)OCC1c2ccccc2-c2ccccc21)C(=O)NCC(=O)N[C@@H](CC(=O)O)C(=O)O` — result for “linear degradation phase duration”: roughly 50 days (HPLC; hydrogel by solvent exchange; 37 °C).
For `C[C@H](Oc1cc(-c2cnn(C3CCN(CC[18F])CC3)c2)cnc1N)c1c(Cl)ccc(F)c1Cl`, the tracer uptake was 1.2 ± 0.5 %ID/cc (PET imaging; nude mouse, muscle; iv, 60 min post injection).
The Cmax of `CN1CCC[C@]1(C)/C=C/S(=O)(=O)NC(=O)Nc1c2c(cc3c1CCC3)CCC2` is reported as 30400 ng/mL (human, plasma; oral, 250 mg, single dose, healthy volunteers).
`CC/C=C\C/C=C\C/C=C\C/C=C\C/C=C\CCCCOC(CC)C(=O)O` (centres unmarked) has a tissue concentration of 7.1 µg equivalents/g tissue (radioactivity, 14C-labelled; Wistar rat, male, subcutaneous fat; oral, 100 mg/kg, 1 day).
For `COc1cc(NC(C)=O)c2c(c1O)-c1c(OC)c(OC)cc3c1C(C2)N(C)CC3` (centres unmarked), the remaining compound was 95.8 ± 2.6% (rat heart homogenate; 0.5 µg/mL, 4 h, room temperature, short-term storage).
With `CCCC[C@H](NC(C)=O)C(=O)N[C@H]1CC(=O)NCCCC[C@@H](C(=O)N[C@@H](C(=O)N2CCC[C@@H]2C(N)=O)C(C)C)NC(=O)[C@H](Cc2c[nH]c3ccccc23)NC(=O)[C@H](CCCN=C(N)N)NC(=O)[C@@H](Cc2ccc3ccccc3c2)NC(=O)[C@@H]2CCCN2C1=O` the half-life was 1.9 ± 0.2 h (Beagle dog, both sexes, plasma; subcutaneous, once daily, 0.75 mg/kg, day 5).
`c1ccc(CN2CCOCCOCCN(CCCCCCCCCCCCCCN3CCOCCOCCN(CCCCCCCCCCCCCCN4CCOCCOCCN(Cc5ccccc5)CCOCCOCC4)CCOCCOCC3)CCOCCOCC2)cc1` gave an aggregate size of 160 nm (dynamic light scattering; LB Miller medium; 3.5 µM).
For `CCCC[C@@H]1NC(=O)[C@@H](NC(=O)[C@H](CCC(=O)O)NC(=O)CNC(=O)CN2CCN(CC(=O)O)CCN(CC(=O)O)CCN(CC(=O)O)CC2)CCCCNC(=O)C[C@@H](C(N)=O)NC(=O)[C@H](C(C)C)NC(=O)[C@@H]2CCCN2C(=O)[C@H](CCCNC(=N)N)NC(=O)CNC(=O)[C@H](Cc2c[nH]c3ccccc23)NC(=O)[C@H](CCCNC(=N)N)NC(=O)[C@@H](Cc2ccccc2)NC(=O)[C@H](Cc2c[nH]cn2)NC(=O)[C@H](CCC(=O)O)NC1=O` [gallium-67 labelled], the tissue uptake was 0.74 ± 0.1 %ID (B16/F1 melanoma-bearing C57 mice, intestine; intravenous, 2 h, added: blocking peptide 10 µg).
The Tmax of `Cc1ccc(OCC(=O)O)cc1` is reported as 1 h (Sprague-Dawley rat Crl:CD(SD), male, plasma; oral, 30 mg/kg/day of parent drug, day 90, 90-day repeated dosing).
Under “maximal oral bioavailability”, `CC12CC(c3ccc(C(=O)CO)cc3)C3=C4CCC(=O)C=C4CCC3C1CCC2(O)C(F)(F)C(F)(F)F` (centres unmarked) is recorded as 81% (rat liver microsomes; 100 % absorption assumed).
For `Cc1cc2c(cc1C1(c3ncc(C(=O)O)cn3)CC1)C(C)(C)CCC2(C)C`, the blood triglycerides was 177 ± 121 mg/dL (Sprague-Dawley rat, male; oral, 100 mg/kg, 9 h, sesame oil vehicle).
For `O=C(CCc1ccc(CNC(C(=O)OC2CCCC2)C2CCCCC2)cn1)NO` (centres unmarked), the Cmax was 16.5 ng/mL (human, plasma; oral, 5 mg, single dose, patients).
With `[2H]C([2H])([2H])NC(=O)c1ccc(N2C(=S)N(c3ccc(C#N)c(C(F)(F)F)c3)C(=O)C2(C)C)cc1F` the AUC was 151000 ng·h/mL (male human, plasma; oral, 40 mg, single dose, fasted).
With `COc1ccc(COC[C@](O)(CNCc2ccccc2)[C@@H]2CC[C@@H](C)C[C@H]2OCc2ccc(OC)cc2)cc1` the permeability was 34 ± 4 ×10⁻⁶ cm/s (PAMPA-GI; phosphatidylcholine-cholesterol membrane; 500 µM, 4 h, pH 6.5, 37 °C, 5% DMSO).

A few entries again:
`c1ccc(CN2CCOCCOCCN(CCCCCCCCCCCCCCN3CCOCCOCCN(CCCCCCCCCCCCCCN4CCOCCOCCN(Cc5ccccc5)CCOCCOCC4)CCOCCOCC3)CCOCCOCC2)cc1` gave an aggregate size of 160 nm (dynamic light scattering; LB Miller medium; 3.5 µM).
For `CCCC[C@@H]1NC(=O)[C@@H](NC(=O)[C@H](CCC(=O)O)NC(=O)CNC(=O)CN2CCN(CC(=O)O)CCN(CC(=O)O)CCN(CC(=O)O)CC2)CCCCNC(=O)C[C@@H](C(N)=O)NC(=O)[C@H](C(C)C)NC(=O)[C@@H]2CCCN2C(=O)[C@H](CCCNC(=N)N)NC(=O)CNC(=O)[C@H](Cc2c[nH]c3ccccc23)NC(=O)[C@H](CCCNC(=N)N)NC(=O)[C@@H](Cc2ccccc2)NC(=O)[C@H](Cc2c[nH]cn2)NC(=O)[C@H](CCC(=O)O)NC1=O` [gallium-67 labelled], the tissue uptake was 0.74 ± 0.1 %ID (B16/F1 melanoma-bearing C57 mice, intestine; intravenous, 2 h, added: blocking peptide 10 µg).
